# Measured values collected from several papers.
# Lines come from different studies, so protocols differ. ± gives the spread as reported.
# pfkA T158A: pfkA (Geobacillus stearothermophilus, UniProt P00512, T158A)
# Sequence of UniProt P00512 (whole entry, unmodified, looked up): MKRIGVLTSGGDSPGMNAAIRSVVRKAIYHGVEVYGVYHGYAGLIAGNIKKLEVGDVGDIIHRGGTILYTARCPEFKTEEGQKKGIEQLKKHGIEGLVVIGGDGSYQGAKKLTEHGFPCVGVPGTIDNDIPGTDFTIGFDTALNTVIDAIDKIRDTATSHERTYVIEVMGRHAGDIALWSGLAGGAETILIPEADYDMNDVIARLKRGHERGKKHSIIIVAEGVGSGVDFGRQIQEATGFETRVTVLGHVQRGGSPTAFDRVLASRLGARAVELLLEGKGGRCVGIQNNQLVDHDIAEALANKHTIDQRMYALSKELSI
# JAK2 SH2 domain: Tyrosine-protein kinase JAK2, SH2 domain (JAK2, Homo sapiens, UniProt O60674)
# Sequence of UniProt O60674 (whole entry, looked up): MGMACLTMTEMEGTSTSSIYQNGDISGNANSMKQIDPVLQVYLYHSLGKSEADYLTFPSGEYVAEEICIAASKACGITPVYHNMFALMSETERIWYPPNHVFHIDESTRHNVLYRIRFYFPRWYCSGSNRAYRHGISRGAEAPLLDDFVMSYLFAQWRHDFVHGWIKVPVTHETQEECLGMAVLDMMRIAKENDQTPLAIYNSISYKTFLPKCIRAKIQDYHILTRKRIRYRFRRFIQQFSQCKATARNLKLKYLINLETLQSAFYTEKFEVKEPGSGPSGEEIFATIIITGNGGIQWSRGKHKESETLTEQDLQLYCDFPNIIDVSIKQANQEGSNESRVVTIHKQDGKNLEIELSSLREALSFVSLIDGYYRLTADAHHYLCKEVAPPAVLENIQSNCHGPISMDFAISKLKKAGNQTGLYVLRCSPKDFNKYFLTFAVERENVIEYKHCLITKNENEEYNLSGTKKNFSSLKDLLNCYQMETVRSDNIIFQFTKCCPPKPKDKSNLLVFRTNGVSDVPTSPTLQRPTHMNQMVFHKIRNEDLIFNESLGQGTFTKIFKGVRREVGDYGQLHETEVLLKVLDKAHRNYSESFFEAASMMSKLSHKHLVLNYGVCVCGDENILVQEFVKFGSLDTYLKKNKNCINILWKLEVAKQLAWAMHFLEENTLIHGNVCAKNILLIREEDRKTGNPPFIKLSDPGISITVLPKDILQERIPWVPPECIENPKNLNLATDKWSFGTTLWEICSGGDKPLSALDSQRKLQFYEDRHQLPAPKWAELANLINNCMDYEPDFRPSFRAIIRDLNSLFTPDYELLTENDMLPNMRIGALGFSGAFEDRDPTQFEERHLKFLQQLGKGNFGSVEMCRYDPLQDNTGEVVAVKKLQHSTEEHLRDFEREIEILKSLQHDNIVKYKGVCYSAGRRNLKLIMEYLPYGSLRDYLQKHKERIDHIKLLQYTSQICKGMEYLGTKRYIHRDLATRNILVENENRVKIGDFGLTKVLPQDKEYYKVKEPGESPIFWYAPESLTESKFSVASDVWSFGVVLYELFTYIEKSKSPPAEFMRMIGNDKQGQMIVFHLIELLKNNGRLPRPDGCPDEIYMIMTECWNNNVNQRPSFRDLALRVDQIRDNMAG
# Sequence of UniProt P52630 (whole entry, looked up): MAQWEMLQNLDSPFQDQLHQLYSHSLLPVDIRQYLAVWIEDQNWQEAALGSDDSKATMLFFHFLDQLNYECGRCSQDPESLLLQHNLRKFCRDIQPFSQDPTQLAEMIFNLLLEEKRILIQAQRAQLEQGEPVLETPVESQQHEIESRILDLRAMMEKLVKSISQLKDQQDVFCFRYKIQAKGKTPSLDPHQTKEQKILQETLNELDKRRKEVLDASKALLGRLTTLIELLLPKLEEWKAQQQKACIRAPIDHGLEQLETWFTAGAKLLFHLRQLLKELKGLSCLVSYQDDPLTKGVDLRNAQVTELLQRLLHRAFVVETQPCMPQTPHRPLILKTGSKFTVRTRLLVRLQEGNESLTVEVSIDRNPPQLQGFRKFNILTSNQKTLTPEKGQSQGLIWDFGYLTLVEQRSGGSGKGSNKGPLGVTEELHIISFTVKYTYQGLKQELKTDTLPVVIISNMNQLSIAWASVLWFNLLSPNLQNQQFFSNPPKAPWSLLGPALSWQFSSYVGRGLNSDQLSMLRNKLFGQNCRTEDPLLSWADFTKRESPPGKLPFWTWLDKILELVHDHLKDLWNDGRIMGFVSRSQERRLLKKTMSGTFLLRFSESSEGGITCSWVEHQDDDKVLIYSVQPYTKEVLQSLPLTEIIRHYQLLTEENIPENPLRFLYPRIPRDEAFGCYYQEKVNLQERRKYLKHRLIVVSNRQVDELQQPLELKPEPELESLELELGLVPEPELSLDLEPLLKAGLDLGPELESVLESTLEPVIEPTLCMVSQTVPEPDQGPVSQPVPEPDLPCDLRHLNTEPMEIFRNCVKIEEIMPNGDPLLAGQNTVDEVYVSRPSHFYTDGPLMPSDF
# Sequence of UniProt P25123 (whole entry, looked up): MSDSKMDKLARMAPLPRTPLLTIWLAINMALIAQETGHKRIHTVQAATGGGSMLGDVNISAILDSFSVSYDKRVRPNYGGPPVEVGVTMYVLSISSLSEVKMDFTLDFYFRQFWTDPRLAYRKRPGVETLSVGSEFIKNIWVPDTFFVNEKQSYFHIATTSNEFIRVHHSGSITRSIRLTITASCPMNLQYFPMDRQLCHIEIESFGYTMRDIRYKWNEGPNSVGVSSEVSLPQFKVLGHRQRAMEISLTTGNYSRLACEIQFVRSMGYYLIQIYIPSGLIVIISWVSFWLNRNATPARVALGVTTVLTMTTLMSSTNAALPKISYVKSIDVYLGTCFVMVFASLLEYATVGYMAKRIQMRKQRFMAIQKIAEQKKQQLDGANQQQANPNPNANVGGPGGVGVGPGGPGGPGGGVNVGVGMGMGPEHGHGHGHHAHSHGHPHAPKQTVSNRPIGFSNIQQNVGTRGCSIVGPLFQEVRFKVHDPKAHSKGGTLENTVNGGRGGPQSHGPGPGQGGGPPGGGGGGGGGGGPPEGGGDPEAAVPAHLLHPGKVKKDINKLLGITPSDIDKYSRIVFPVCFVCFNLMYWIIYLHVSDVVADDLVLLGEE
# Sequence of UniProt Q8TBX8 (whole entry, looked up): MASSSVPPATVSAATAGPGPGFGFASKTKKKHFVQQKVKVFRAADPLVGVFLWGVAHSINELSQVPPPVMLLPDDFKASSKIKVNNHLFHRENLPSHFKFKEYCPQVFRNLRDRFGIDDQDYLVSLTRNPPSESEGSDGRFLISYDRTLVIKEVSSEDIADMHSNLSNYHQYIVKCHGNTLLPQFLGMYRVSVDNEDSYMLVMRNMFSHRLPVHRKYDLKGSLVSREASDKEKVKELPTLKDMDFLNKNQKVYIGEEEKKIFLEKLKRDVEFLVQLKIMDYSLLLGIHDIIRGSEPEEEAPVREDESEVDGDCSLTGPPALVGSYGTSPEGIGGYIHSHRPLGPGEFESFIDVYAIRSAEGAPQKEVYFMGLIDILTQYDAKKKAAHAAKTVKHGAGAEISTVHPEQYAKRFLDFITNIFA
# Sequence of UniProt O43639 (whole entry, looked up): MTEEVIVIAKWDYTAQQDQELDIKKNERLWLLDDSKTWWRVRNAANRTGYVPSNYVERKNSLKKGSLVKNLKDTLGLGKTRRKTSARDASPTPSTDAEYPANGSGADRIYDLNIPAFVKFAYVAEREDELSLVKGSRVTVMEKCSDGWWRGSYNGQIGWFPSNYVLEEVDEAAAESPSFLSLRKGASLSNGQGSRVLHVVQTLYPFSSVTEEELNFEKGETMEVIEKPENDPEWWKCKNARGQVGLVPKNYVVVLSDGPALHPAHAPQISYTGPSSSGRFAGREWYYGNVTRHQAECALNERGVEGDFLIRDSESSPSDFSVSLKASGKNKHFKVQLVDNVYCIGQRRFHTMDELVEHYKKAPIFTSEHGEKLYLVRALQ
# Sequence of UniProt P22748 (whole entry, looked up): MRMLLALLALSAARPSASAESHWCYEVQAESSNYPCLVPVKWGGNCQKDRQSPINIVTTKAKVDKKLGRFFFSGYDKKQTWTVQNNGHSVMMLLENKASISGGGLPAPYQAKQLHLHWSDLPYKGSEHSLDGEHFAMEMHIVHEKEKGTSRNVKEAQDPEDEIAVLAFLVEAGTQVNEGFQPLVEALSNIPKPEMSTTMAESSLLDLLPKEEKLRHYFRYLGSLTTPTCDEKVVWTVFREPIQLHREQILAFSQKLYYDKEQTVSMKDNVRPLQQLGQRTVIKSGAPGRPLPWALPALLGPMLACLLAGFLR
# Sequence of UniProt P42681 (whole entry, looked up): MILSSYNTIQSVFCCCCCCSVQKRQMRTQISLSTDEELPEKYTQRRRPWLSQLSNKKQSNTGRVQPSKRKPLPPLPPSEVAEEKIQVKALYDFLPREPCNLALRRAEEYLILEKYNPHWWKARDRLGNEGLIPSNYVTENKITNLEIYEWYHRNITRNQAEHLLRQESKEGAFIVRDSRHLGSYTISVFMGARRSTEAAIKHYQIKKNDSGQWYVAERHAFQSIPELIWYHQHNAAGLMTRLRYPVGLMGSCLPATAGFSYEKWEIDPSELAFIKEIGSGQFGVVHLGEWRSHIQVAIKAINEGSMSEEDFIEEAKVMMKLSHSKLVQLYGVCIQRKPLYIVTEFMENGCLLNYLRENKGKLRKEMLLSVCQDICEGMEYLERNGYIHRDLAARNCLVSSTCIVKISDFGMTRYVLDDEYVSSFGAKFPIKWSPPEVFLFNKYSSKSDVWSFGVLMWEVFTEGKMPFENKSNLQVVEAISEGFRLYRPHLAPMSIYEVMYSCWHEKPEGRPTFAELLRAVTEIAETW
# Sequence of UniProt Q92PC8 (whole entry, unmodified, looked up): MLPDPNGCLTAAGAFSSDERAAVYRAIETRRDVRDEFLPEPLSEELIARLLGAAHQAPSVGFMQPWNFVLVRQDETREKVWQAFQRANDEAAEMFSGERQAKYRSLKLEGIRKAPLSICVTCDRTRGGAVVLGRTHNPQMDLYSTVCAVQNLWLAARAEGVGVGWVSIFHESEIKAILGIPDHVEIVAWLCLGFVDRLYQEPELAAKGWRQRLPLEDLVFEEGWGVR
SMILES,target,assay,test system,conditions,Kd [nM]
CC[C@H](CO)Nc1nc(NCc2ccc(-c3ccccn3)cc2)c2ncn(C(C)C)c2n1,"Phosphatidylinositol 5-phosphate 4-kinase type-2 gamma (PIP4K2C, Homo sapiens, UniProt Q8TBX8)","binding, competition affinity chromatography",SH-SY5Y cell extract,,14500
CC[C@H](C)[C@@H]1NC(=O)[C@H]([C@@H](C)O)NC(=O)[C@@H]2CCCN2C(=O)[C@H](CC(C)C)NC(=O)[C@H](Cc2ccc(O)cc2)NC(=O)CSC[C@@H](C(N)=O)NC(=O)[C@H](CC(C)C)NC(=O)[C@@H]2CCCN2C(=O)[C@H](Cc2c[nH]cn2)NC(=O)[C@H](Cc2c[nH]c3ccccc23)NC(=O)[C@H](CC(C)C)NC(=O)[C@H](Cc2c[nH]cn2)NC(=O)CNC(=O)[C@H](C(C)C)NC(=O)CNC(=O)[C@H]([C@@H](C)O)NC1=O,"VPS35/VPS29 (Homo sapiens, UniProt Q96QK1+Q9UBQ0)","binding, ITC",,"25 °C, heterodimer",763 ± 12
CSCC[C@H](N)C(=O)N[C@@H](C)C(=O)N[C@@H](C)C(=O)N[C@H](C(=O)N[C@@H](C)C(=O)NCC(=O)N[C@@H](CC(C)C)C(=O)N[C@@H](Cc1ccc(O)cc1)C(=O)NCC(=O)N[C@@H](CC(C)C)C(=O)NCC(=O)N[C@@H](CCC(=O)O)C(=O)N[C@@H](CC(=O)O)C(=O)N[C@@H](CCCNC(=N)N)C(=O)N[C@@H](CCC(N)=O)C(=O)N[C@@H](Cc1c[nH]cn1)C(=O)N[C@@H](CCCNC(=N)N)C(=O)N[C@@H](CCCCN)C(=O)N[C@@H](CCCCN)C(=O)N[C@@H](CCC(N)=O)C(N)=O)C(C)C,"Sh, DEL6-46 (Drosophila melanogaster, UniProt P08510)","ion current, blocker, inside-out patch clamp",,+90 mV,3500
O=C(CO)[C@@H](O)[C@H](O)[C@H](O)COP(=O)(O)O,pfkA T158A,,,,17000 ± 1000
CC[C@H](C)[C@H](NC(=O)[C@H](Cc1ccccc1)NC(=O)CNC(=O)[C@H](Cc1c[nH]c2ccccc12)NC(=O)[C@@H]1CSC[C@@H](NC(=O)[C@H](Cc2ccc(O)cc2)NC(=O)[C@H](Cc2c[nH]c3ccccc23)NC(=O)[C@H](CC(C)C)NC(=O)CNC(=O)[C@H](CCCNC(=N)N)NC(=O)c2ccc3c(c2)C(=O)OC32c3ccc(O)cc3Oc3cc(O)ccc32)C(=O)N[C@@H](CC(C)C)C(=O)N[C@@H](CO)C(=O)N1)C(=O)NCC(=O)N[C@@H](CCCNC(=N)N)C(=O)N[C@@H](CCCNC(=N)N)C(=O)NCCCOCCOCCOCCCNC(=O)CCC(=O)NCCCOCCOCCOCCCNC(=O)CCC(=O)NCCCOCCOCCOCCCNC(=O)CCC(=O)N[C@@H](C)C(=O)O,"srtA (Staphylococcus aureus, UniProt Q2FV99)","binding, fluorescence polarization",,pH 7.5,4020 ± 500
CC(C)C[C@H](NC(=O)[C@H](Cc1ccc(OP(=O)(O)O)cc1)NC(=O)[C@H](CCC(=O)O)NC(=O)[C@@H]1CCCN1C(=O)[C@H](CC(N)=O)NC(=O)CNC(=O)[C@@H](NC(=O)[C@H](C)NC(=O)[C@@H](NC(=O)[C@H](CO)NC(=O)[C@H](Cc1c[nH]cn1)NC(=O)c1ccc2c(c1)C(=O)OC21c2ccc(N(C)C)cc2Oc2cc(N(C)C)ccc21)[C@@H](C)O)C(C)C)C(=O)N[C@@H](CC(N)=O)C(=O)N[C@H](C(=O)N[C@H](C(=O)N[C@@H](CCC(N)=O)C(=O)N1CCC[C@H]1C(=O)N[C@H](C(=O)N[C@@H](CC(=O)O)C(=O)O)[C@@H](C)O)C(C)C)[C@@H](C)O,"Cytoplasmic protein NCK2, SH2 domain (NCK2, Homo sapiens, UniProt O43639)",binding,,,326
CC1(C)O[C@@H]2[C@@H](CO[C@@]3(COS(N)(=O)=O)OC(C)(C)O[C@@H]23)O1,"Carbonic anhydrase 4 (CA4, Homo sapiens, UniProt P22748)",binding,,,45
CC[C@H](C)[C@H](NC(=O)[C@H](Cc1ccc(OP(=O)(O)O)cc1)NC(=O)[C@H](CCC(=O)O)NC(=O)[C@H](Cc1c[nH]cn1)NC(=O)CNC(=O)[C@H](CC(=O)O)NC(=O)[C@H](CO)NC(=O)[C@H](CO)NC(=O)[C@@H](NC(=O)[C@H](CO)NC(=O)[C@H](CCC(=O)O)NC(=O)c1ccc2c(c1)C(=O)OC21c2ccc(N(C)C)cc2Oc2cc(N(C)C)ccc21)C(C)C)C(=O)N[C@@H](Cc1ccc(O)cc1)C(=O)N[C@H](C(=O)N[C@@H](CC(=O)O)C(=O)N1CCC[C@H]1C(=O)N[C@@H](CCSC)C(=O)N[C@@H](CCC(N)=O)C(=O)N[C@@H](CC(=O)O)C(=O)O)C(C)C,"Adapter molecule crk, SH2 domain (Homo sapiens, UniProt P46108)",binding,,,1900
C=C(OP(=O)(O)O)C(=O)O,pfkA T158A,,,,98000 ± 4000
Nc1ncnc2c1ncn2[C@@H]1O[C@H](COP(=O)(O)OP(=O)(O)O)[C@@H](O)[C@H]1O,"Cell cycle histidine kinase CckA, cytoplasmic region (Caulobacter vibrioides, UniProt Q9X688)","binding, isothermal titration calorimetry",,"without c-di-GMP, apparent",530000
Cc1cc2nc3c(=O)[nH]c(=O)nc-3n(C[C@H](O)[C@H](O)[C@H](O)COP(=O)(O)O)c2cc1C,"5,6-dimethylbenzimidazole synthase (bluB, Rhizobium meliloti, UniProt Q92PC8, R34E)",binding,Sinorhizobium meliloti,,11000 ± 1000
CSCC[C@H](NC(=O)[C@H](Cc1ccc(OP(=O)(O)O)cc1)NC(=O)CNC(=O)CNC(=O)[C@H](CC(=O)O)NC(=O)[C@H](CO)NC(=O)[C@H](CCC(=O)O)NC(=O)CNC(=O)[C@@H](NC(=O)[C@H](CC(C)C)NC(=O)[C@H](CO)NC(=O)c1ccc2c(c1)C(=O)OC21c2ccc(N(C)C)cc2Oc2cc(N(C)C)ccc21)[C@@H](C)O)C(=O)N[C@@H](CC(=O)O)C(=O)N[C@@H](CCSC)C(=O)N[C@@H](CO)C(=O)N[C@@H](CCCCN)C(=O)N[C@@H](CC(=O)O)C(=O)N[C@@H](CCC(=O)O)C(=O)N[C@@H](CC(=O)O)C(=O)O,JAK2 SH2 domain,binding,,,1410
C[N+](C)(C)[C@@H](Cc1c[nH]c(=S)[nH]1)C(=O)[O-],"egtUBC (Streptococcus pneumoniae, UniProt A0A0H2ZQB9, I243A)",binding,,,1690
CC[C@H](C)[C@H](NC(=O)[C@H](Cc1ccc(OP(=O)(O)O)cc1)NC(=O)[C@H](CCC(=O)O)NC(=O)[C@@H]1CCCN1C(=O)[C@@H](NC(=O)[C@@H]1CCCN1C(=O)[C@H](CC(C)C)NC(=O)[C@H](Cc1ccccc1)NC(=O)[C@@H](NC(=O)[C@H](CC(=O)O)NC(=O)[C@H](CC(=O)O)NC(=O)c1ccc2c(c1)C(=O)OC21c2ccc(N(C)C)cc2Oc2cc(N(C)C)ccc21)[C@@H](C)O)C(C)C)C(=O)N[C@@H](CC(N)=O)C(=O)N[C@@H](CCC(N)=O)C(=O)N[C@@H](CO)C(=O)N[C@H](C(=O)N1CCC[C@H]1C(=O)N[C@@H](CCCCN)C(=O)N[C@@H](CC(=O)O)C(=O)O)C(C)C,"Signal transducer and activator of transcription 2, SH2 domain (Homo sapiens, UniProt P52630)",binding,,,1630
Cn1c2cccc(=O)c-2nc2ccccc21,"TetR-family regulator NalD (Pseudomonas aeruginosa, UniProt Q9HY46, F174A/H167A/N175A)",,,,18700
CC(C)C[C@H](NC(=O)[C@@H](NC(=O)[C@H](CO)NC(=O)[C@H](CO)NC(=O)[C@@H](NC(=O)[C@H](CC(=O)O)NC(=O)[C@H](CC(C)C)NC(=O)[C@@H]1CCCN1C(=O)[C@H](CO)NC(=O)c1ccc2c(c1)C(=O)OC21c2ccc(N(C)C)cc2Oc2cc(N(C)C)ccc21)[C@@H](C)O)C(C)C)C(=O)N[C@@H](Cc1ccc(OP(=O)(O)O)cc1)C(=O)N[C@H](C(=O)N[C@@H](C)C(=O)N[C@H](C(=O)N[C@@H](CCC(N)=O)C(=O)N1CCC[C@H]1C(=O)N[C@@H](CC(N)=O)C(=O)N[C@@H](CCC(=O)O)C(=O)N[C@@H](CC(=O)O)C(=O)O)C(C)C)[C@@H](C)O,"Tyrosine-protein kinase TXK, SH2 domain (TXK, Homo sapiens, UniProt P42681)",binding,,,1140
CC(CCc1ccc(O)cc1)NCCc1ccc(O)c(O)c1 (stereo not shown),"ADRB1 (Meleagris gallopavo, UniProt P07700, A282L/C116L/F327A/F338M/M90V/R68S/Y227A)","binding, [3H]-CGP 12177 competition binding","CHO cells expressing ADRB1 β6-m23, whole cells",,3470
CSCC[C@H](NC(=O)CNC(=O)[C@H](Cc1ccccc1)NC(=O)[C@H](CC(=O)O)NC(=O)CNC(=O)c1ccc2c(c1)C(=O)OC21c2ccc(N(C)C)cc2Oc2cc(N(C)C)ccc21)C(=O)N[C@@H](CO)C(=O)N[C@@H](CCCNC(=N)N)C(=O)N[C@@H](CC(=O)O)C(=O)N[C@H](C(=O)N[C@@H](Cc1ccc(OP(=O)(O)O)cc1)C(=O)N[C@@H](CO)C(=O)N[C@H](C(=O)N[C@@H](CC(=O)O)C(=O)N[C@@H](Cc1ccc(O)cc1)C(=O)N[C@@H](Cc1ccc(O)cc1)C(=O)N[C@@H](CCCNC(=N)N)C(=O)N[C@H](C(=O)N[C@@H](CC(=O)O)C(=O)O)C(C)C)[C@@H](C)O)C(C)C,JAK2 SH2 domain,binding,,,618
CC(C)(C)[C@]1(O)CC2OC(=O)CC23C(=O)OC2OC(=O)[C@H](O)C231 (stereo partly shown),"Rdl (Drosophila melanogaster, UniProt P25123)",,Drosophila,,136

# Repeated from above:
SMILES,target,assay,test system,conditions,Kd [nM]
CC1(C)O[C@@H]2[C@@H](CO[C@@]3(COS(N)(=O)=O)OC(C)(C)O[C@@H]23)O1,"Carbonic anhydrase 4 (CA4, Homo sapiens, UniProt P22748)",binding,,,45
CC[C@H](C)[C@H](NC(=O)[C@H](Cc1ccc(OP(=O)(O)O)cc1)NC(=O)[C@H](CCC(=O)O)NC(=O)[C@H](Cc1c[nH]cn1)NC(=O)CNC(=O)[C@H](CC(=O)O)NC(=O)[C@H](CO)NC(=O)[C@H](CO)NC(=O)[C@@H](NC(=O)[C@H](CO)NC(=O)[C@H](CCC(=O)O)NC(=O)c1ccc2c(c1)C(=O)OC21c2ccc(N(C)C)cc2Oc2cc(N(C)C)ccc21)C(C)C)C(=O)N[C@@H](Cc1ccc(O)cc1)C(=O)N[C@H](C(=O)N[C@@H](CC(=O)O)C(=O)N1CCC[C@H]1C(=O)N[C@@H](CCSC)C(=O)N[C@@H](CCC(N)=O)C(=O)N[C@@H](CC(=O)O)C(=O)O)C(C)C,"Adapter molecule crk, SH2 domain (Homo sapiens, UniProt P46108)",binding,,,1900
C=C(OP(=O)(O)O)C(=O)O,pfkA T158A,,,,98000 ± 4000
